Assay results gathered from unrelated publications.
Medium: plasma

| Structure (SMILES) | test | test system | setting | scale | quantity | result |
| --- | --- | --- | --- | --- | --- | --- |
| COC(=O)N[C@H](C(=O)N1CCC[C@H]1C(=O)Nc1ccc([C@@H]2CC[C@@H](c3ccc(NC(=O)[C@@H]4CCCN4C(=O)[C@@H](NC(=O)OC)C(C)C)cc3)N2c2ccc(C(C)(C)C)cc2)cc1)C(C)C |  | healthy human volunteers | oral, dose not given, with: escitalopram plus 2D regimen |  | Cmax | 128 ng/mL |
| CCCCCOc1ccc(-c2ccc(-c3ccc(C(=O)N[C@H]4C[C@@H](O)[C@@H](O)NC(=O)[C@@H]5[C@@H](O)[C@@H](C)CN5C(=O)[C@H]([C@@H](C)O)NC(=O)[C@H]([C@H](O)[C@@H](O)c5ccc(O)cc5)NC(=O)[C@@H]5C[C@@H](O)CN5C(=O)[C@H]([C@@H](C)O)NC4=O)cc3)cc2)cc1 |  | human neonates | intravenous, 1.5 mg/kg/day after 3 mg/kg loading |  | Cmax steady state | 3900 ng/mL |
| [O-][S+]1CCc2nc(N3CCC(c4ncc(Cl)cn4)CC3)nc(NC3(CO)CCC3)c21 (centres unmarked) |  | human | oral, 6 mg twice daily, fed, geometric mean |  | Cmax at steady state | 164 nM |
| Cn1cc(C2=C(c3cn(C4CCN(Cc5ccccn5)CC4)c4ccccc34)C(=O)NC2=O)c2ccccc21 |  | human, cancer patients | oral, 250 mg once daily, cycle 1 day 22, with: erlotinib 150 mg daily |  | Cmax at steady state | 618 nM |
| CC[C@@]1(O)C(=O)OCc2c1cc1n(c2=O)Cc2cc3c(CN(C)C)c(O)ccc3nc2-1 |  | human patients | oral, 8 mg weekly, geometric mean, alone |  | Cmax | 24.8 ng/mL |
| COc1ccc(C[C@@H]2NC(=O)[C@H]([C@@H](C)O)NC(=O)[C@@H]3[C@@H]4CCN3C(=O)[C@@H]3Cc5cn(c6ccc(F)cc56)CCCCCCN(Cc5ccc(cc5)CCNC(=O)[C@]5(C)CCCN5C2=O)C(=O)CCC(=O)N[C@@H](C)C(=O)N[C@H](CNC(=O)CCCCC[N+](C)(C)C)C(=O)N[C@@H](Cc2cccc(c2)CNC(=O)CO4)C(=O)N3)cc1 |  | healthy fasted humans | oral, 10 mg once daily, day 1, geometric mean, with: sodium caprate 360 mg |  | Cmax | 7.05 nM |
| C=C1C[C@H]2[C@@H]3CC[C@H](O)[C@@]3(C)CC[C@@H]2[C@@]2(C)C=CC(=O)C=C12 | item: conjugated compound | human |  | reference: UGT2B17 *1/*1 over *2/*2 | Cmax ratio | ~8 fold |
| Cc1cnc(C(=O)N[C@H]2CCCCC/C=C\[C@@H]3C[C@@]3(C(=O)NS(=O)(=O)C3CC3)NC(=O)[C@@H]3C[C@@H](Oc4nc5ccccc5c5ccccc45)CN3C2=O)cn1 |  | healthy human volunteers | oral, dose not given, with: pravastatin plus 2D regimen |  | Cmax | 153 ng/mL |

Excerpt of the above:
| Structure (SMILES) | test | test system | setting | scale | quantity | result |
| --- | --- | --- | --- | --- | --- | --- |
| COC(=O)N[C@H](C(=O)N1CCC[C@H]1C(=O)Nc1ccc([C@@H]2CC[C@@H](c3ccc(NC(=O)[C@@H]4CCCN4C(=O)[C@@H](NC(=O)OC)C(C)C)cc3)N2c2ccc(C(C)(C)C)cc2)cc1)C(C)C |  | healthy human volunteers | oral, dose not given, with: escitalopram plus 2D regimen |  | Cmax | 128 ng/mL |
